# Results collected from several papers.
# Parts stem from different laboratories: compare values within a part only.

# Sample 1 — organism: SARS-CoV-2; effect on: cytopathic effect; cell line: Vero E6; tested at: 10 µM
SMILES,inhibition [%]
COc1ccc([N+](=O)[O-])c(S(=O)(=O)c2ccc(Cl)cc2)n1,-42.3
C/N=c1/nc(-c2ccccc2)n(-c2ccccc2)s1,-11.7
CCOc1ccc(Nc2nc(-c3c(C)nc4ccccn34)cs2)cc1,-2.2

# Sample 2 — method: protein binding microarray; molecule type: double-stranded DNA, one strand shown; medium: in vitro; tested at: not given; baseline: not given; reading: higher = stronger binding
# Target: Histone acetyltransferase KAT6A, both winged helices, GST fusion (KAT6A, Homo sapiens, UniProt Q92794, residues 1-181)
# Notes: 8-mer, flanks averaged, mean of 2 arrays, mostly near background
# Construct (chain): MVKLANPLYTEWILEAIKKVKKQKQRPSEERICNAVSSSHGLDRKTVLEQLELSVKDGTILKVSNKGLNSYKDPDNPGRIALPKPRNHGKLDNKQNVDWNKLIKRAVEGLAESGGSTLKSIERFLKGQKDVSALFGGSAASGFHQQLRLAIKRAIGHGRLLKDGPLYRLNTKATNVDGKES
Oligonucleotide,E-score
ACAGCTGA,-0.0442
CCGCCTGC,0.188
TGACCTAA,-0.197
CGCAATAC,0.212
GCAGTGGC,0.0746
ACGGAATG,0.0893
AGTTATAT,-0.0874
GTCATACA,0.0139

# Sample 3 — effect on: enzyme activity; mode: inhibitor; tested at: 20 µM
# Target: Replicase polyprotein 1ab, polymerase (rep, Severe acute respiratory syndrome coronavirus 2, UniProt P0DTD1)
Structure (SMILES),inhibition [%]
O=c1cc(-c2ccc(O)cc2)oc2cc(O)cc(O)c12,3.36
CC(N)[C@]12C[C@H]3C[C@H](C[C@H](C3)C1)C2 (stereo partly drawn),5.04
CO[C@@]1(NC(=O)Cc2cccs2)C(=O)N2C(C(=O)O)=C(COC(N)=O)CS[C@@H]21,13.7
CN1CCCN=C1COC(=O)C(O)(c1ccccc1)C1CCCCC1 (stereo not drawn),8.91
CC(=O)NCCNc1cc(Cl)nn2c(-c3cccc(S(=O)(=O)N(C)C)c3)c(C)nc12,0.2
O=C1CCc2cc(OCCCCc3nnnn3C3CCCCC3)ccc2N1,2.57
C[N+](C)(C)CC[N+]1(C)Cc2c(Cl)c(Cl)c(Cl)c(Cl)c2C1,1.11
O=CC[C@@H](O)[C@H](O)[C@H](O)CO,-0.76
C[C@]12C=CC(=O)C=C1CC[C@@H]1[C@@H]2[C@@H](O)C[C@@]2(C)[C@H]1CC[C@]2(O)C(=O)COP(=O)(O)O,-2.03
Nc1nc(=O)[nH]cc1F,-2.45
CN(C)[C@@H](CCOc1cccc2ccccc12)c1ccccc1,-7.22
CC(C)C(=O)OC[C@@]1(N=[N+]=[N-])O[C@@H](n2ccc(N)nc2=O)[C@H](OC(=O)C(C)C)[C@@H]1OC(=O)C(C)C,-4.12
COc1cc(O)c(C(=O)c2ccccc2)cc1S(=O)(=O)O,-3.01
CCc1nc2c(C)nc(C)cc2n1-c1ccc(CCNC(=O)NS(=O)(=O)c2ccc(C)cc2)cc1,-9.18
COc1cc(NS(=O)(=O)c2ccc(N)cc2)ncn1,21.5
O=C1CN(/N=C/c2ccc([N+](=O)[O-])o2)C(=O)N1,20.6
CNC(=O)c1ccc2c(c1)CCO[C@H]2CCN1CCN(c2ccc(C(N)=O)cc2)CC1,11.6
CC(C)[C@@H]1CC[C@@H](C)C[C@H]1O,1.3
CCN(CC)CCOc1ccccc1C(=O)CCc1ccccc1,4.9
NC(=O)Cc1cccc(C(=O)c2ccccc2)c1N,-0.41
CN1CCN(c2cc3c(cc2F)c(=O)c(C(=O)O)cn3-c2ccc(F)cc2)CC1,3.09
COc1ccc2cccc(N3CCN(CCNC(=O)c4ccc(F)cc4)CC3)c2c1,-1.85
O=C(O)c1cccnc1Nc1cccc(C(F)(F)F)c1,27.4
NC(CO)(CO)CO,2.34
C[C@H](N)Cn1ccc2cc(F)c(Cl)cc21,-0.61

# Sample 4 — method: protein-binding microarray; molecule type: hairpin DNA; medium: in vitro; tested at: not given; baseline: not given; reading: higher = stronger binding
# Target: Interferon regulatory factor 1, DNA-binding domain (IRF1, Homo sapiens, UniProt P10914, residues 1-114)
# Notes: whole hairpin DNA, median over replicate spots
# Target sequence (chain): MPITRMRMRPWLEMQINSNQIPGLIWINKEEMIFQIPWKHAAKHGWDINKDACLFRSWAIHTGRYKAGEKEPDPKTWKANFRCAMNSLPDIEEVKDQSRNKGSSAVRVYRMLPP
Oligonucleotide,median fluorescence
GAGGCCCGAACGCGAAACGCCTCCTGGCGTTTCGCGTTCGGGCCTCACAC (5mC at 11 35),551 a.u.
GAGGCCCAAAAGTGAAACGCCTCCTGGCGTTTCACTTTTGGGCCTCACAC,1270 a.u.
GAGGCCCGAACGCGAAACGCCTCCTGGCGTTTCGCGTTCGGGCCTCACAC (5mC at 35),532 a.u.
GAGGCCCGAACGCGAAACGCCTCCTGGCGTTTCGCGTTCGGGCCTCACAC (5mC at 11),544 a.u.

# Sample 5 — method: RNAcompete; molecule type: RNA; medium: in vitro; tested at: 20 nM; notes: 7-mer, probes averaged, single round; baseline: mean of 7-mers; reading: higher = stronger binding
# Target: PABPC1L2, full length, GST fusion (mouse, UniProt A0ABA7IW68)
# Construct (chain): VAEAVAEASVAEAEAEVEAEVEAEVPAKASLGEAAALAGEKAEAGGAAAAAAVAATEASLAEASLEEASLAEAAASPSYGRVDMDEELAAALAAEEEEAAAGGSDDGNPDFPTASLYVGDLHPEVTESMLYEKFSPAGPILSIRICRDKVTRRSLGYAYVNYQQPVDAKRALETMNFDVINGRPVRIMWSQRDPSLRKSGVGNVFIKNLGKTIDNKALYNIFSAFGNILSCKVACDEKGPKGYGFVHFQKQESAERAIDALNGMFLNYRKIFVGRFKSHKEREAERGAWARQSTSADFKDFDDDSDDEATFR
Oligonucleotide,7-mer Z-score
UGGUACG,0.0424
UGGCCGA,-0.0736
ACGGGGG,0.184
UAGAUAU,-0.139
CGCCUCA,-0.373
GAAUUAU,-0.177
AUCGCCU,-0.42
GGGCACC,0.24

# Sample 6 — cell line: HEK-293T; organism: VSV pseudotyped with SARS-CoV-2 spike; tested at: 10 µM; time: 16 h
SMILES,pseudovirus infection [%]
CC(C)NCC(O)COc1ccc(CC(N)=O)cc1 (stereo not drawn),99.1
COC(=O)[C@H](c1ccccc1Cl)N1CCc2sccc2C1,103
O=C(O)COCCN1CCN(C(c2ccccc2)c2ccc(Cl)cc2)CC1 (stereo not drawn),83.2

# Some of these lines once more (sample 3):
Structure (SMILES),inhibition [%]
CC(N)[C@]12C[C@H]3C[C@H](C[C@H](C3)C1)C2 (stereo partly drawn),5.04
CO[C@@]1(NC(=O)Cc2cccs2)C(=O)N2C(C(=O)O)=C(COC(N)=O)CS[C@@H]21,13.7
CN1CCCN=C1COC(=O)C(O)(c1ccccc1)C1CCCCC1 (stereo not drawn),8.91
CC(=O)NCCNc1cc(Cl)nn2c(-c3cccc(S(=O)(=O)N(C)C)c3)c(C)nc12,0.2
O=C1CCc2cc(OCCCCc3nnnn3C3CCCCC3)ccc2N1,2.57
C[N+](C)(C)CC[N+]1(C)Cc2c(Cl)c(Cl)c(Cl)c(Cl)c2C1,1.11
O=CC[C@@H](O)[C@H](O)[C@H](O)CO,-0.76
C[C@]12C=CC(=O)C=C1CC[C@@H]1[C@@H]2[C@@H](O)C[C@@]2(C)[C@H]1CC[C@]2(O)C(=O)COP(=O)(O)O,-2.03
